Measurements pooled from the literature.
A part holds a random share of what one study measured. Changes are numbered by the printed parent chain.

Study 1
Target: CCNE1, cyclin fold, Cln2 fusion (human)
Technique: yeast growth competition, sequencing
Medium: yeast
Setting: strong parent motif
Relative to: not given
Direction: higher = stronger binding
Quantity: normalised enrichment score
Starting sequence: TICRR docking peptide (human); TKVRRNLFNQELL
Substitution = V3A; value = 0.43
Substitution = R5K; value = 0.116
Substitution = E11A; value = 1.44
Substitution = R4A; value = 0.585
Substitution = R5A L7A; value = -0.234
Substitution = Q10A; value = 1.29
Substitution = L12A; value = 1.34
Substitution = R5K F8L; value = 0.391
Substitution = L13A; value = 2.17
Substitution = N9A; value = 1.93

Study 2
Target: ABI1, truncated, D143A, DHFR fusion (Arabidopsis thaliana)
Technique: DHFR PCA, deep sequencing
Medium: yeast
Setting: methotrexate growth selection, single substitutions
Together with: (+)-ABA 0.0091 µM
Relative to: wild-type fitted maximum
Direction: higher = stronger binding
Quantity: relative binding score
Starting sequence: PYL1, truncated, DHFR fusion (Arabidopsis thaliana); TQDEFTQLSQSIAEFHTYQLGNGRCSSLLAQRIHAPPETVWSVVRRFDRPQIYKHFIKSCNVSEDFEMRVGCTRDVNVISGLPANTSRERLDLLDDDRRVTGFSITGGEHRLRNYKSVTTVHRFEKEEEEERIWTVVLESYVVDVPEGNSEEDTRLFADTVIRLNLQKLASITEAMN; partner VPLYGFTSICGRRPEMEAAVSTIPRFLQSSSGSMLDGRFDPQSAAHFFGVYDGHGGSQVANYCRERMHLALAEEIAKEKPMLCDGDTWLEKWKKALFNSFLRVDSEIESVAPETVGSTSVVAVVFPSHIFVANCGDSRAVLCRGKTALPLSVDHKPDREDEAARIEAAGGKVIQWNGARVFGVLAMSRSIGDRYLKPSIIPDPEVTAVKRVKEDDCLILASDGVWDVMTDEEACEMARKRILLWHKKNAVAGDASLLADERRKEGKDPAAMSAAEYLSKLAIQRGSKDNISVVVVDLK
Substitution = F157T; value = -1.08%
Substitution = S140T; value = 2.8%
Substitution = F103A; value = -4.14%
Substitution = G71V; value = -1.37%
Substitution = S9F; value = 12.3%
Substitution = A175M; value = 11.9%
Substitution = K54S; value = -3.59%
Substitution = R99N; value = -1.35%
Substitution = E130Y; value = 1.96%
Substitution = Y53F; value = 3.4%
Substitution = E109M; value = -1.79%
Substitution = V142R; value = 5.83%
Substitution = S11L; value = 1.84%
Substitution = C25E; value = -0.453%
Substitution = F103K; value = -6.73%
Substitution = E38F; value = -2.54%
Substitution = V137Y; value = -9.44%

Study 3
Target: Interferon regulatory factor 7, full length, phosphomimetic (IRF7, Homo sapiens, UniProt Q92985, residues 1-503, S471D/S472D/S475D/S476D/S477D/S483D/S484D/S487D)
UniProt Q92985, sequence (whole entry, unmodified, looked up): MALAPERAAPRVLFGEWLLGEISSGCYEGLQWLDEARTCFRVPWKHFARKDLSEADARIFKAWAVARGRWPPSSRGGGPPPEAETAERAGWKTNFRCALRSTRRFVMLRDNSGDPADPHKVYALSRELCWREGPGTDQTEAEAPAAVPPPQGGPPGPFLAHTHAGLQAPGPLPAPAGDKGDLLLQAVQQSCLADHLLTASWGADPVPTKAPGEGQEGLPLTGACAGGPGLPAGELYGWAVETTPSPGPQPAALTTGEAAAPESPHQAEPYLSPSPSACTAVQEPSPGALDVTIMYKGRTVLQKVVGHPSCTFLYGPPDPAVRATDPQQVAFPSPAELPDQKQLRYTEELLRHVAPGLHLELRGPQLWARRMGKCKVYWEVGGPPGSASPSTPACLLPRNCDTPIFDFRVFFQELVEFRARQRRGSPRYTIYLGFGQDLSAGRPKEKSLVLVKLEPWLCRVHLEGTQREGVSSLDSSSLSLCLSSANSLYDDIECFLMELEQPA
Technique: protein-binding microarray
Form: double-stranded DNA, one strand shown
Medium: in vitro
Tested at: 2200 nM top
Setting: 60-bp whole probe
Together with: salmon DNA 0.4 mg/ml
Relative to: random background probes
Direction: higher = stronger binding
Quantity: fitted relative affinity
All sequences stand within: GCCTAGCAC … GTCTTGATTCGCTTGACGCTGCTG
Strand = TCATTTTAGCTTCTCAAACTGTGCTAG; value = 2.57 z-score
Strand = TTAGGATTCCTTTTCCTTTAGTGCTAG; value = 2.25 z-score
Strand = CTTTAACTCATTCTCCACTTGTGCTAG; value = 1.47 z-score
Strand = TCACTATTATATATATCACTGTGCTAG; value = 1.19 z-score
Strand = TTAGGTTTCGGTTTTCGGTTAGTGCTA; value = 13.7 z-score
Strand = TGTCTTTTCACTTTCTTTAAGTGCTAG; value = 4.03 z-score
Strand = GACGAACTGGGGACTGGATACGTGCTA; value = 0.0777 z-score
Strand = GACGGTCTCCTTTTCCTGATGTGCTAG; value = 1.55 z-score
Strand = TTAGATCTCAGATTCGATTAGTGCTAG; value = 1.31 z-score
Strand = TTAGGTTTCGGTCTCGGTTGGTGCTAG; value = 7.06 z-score
Strand = TTAAGTCTCGGTATCGGTTAGTGCTAG; value = 0.783 z-score
Strand = TTAGATCTCAGATTGGATTAGTGCTAG; value = -0.366 z-score
Strand = TCACTGATCCATTTTGGACTGTGCTAG; value = 0.767 z-score
Strand = TTAGATATCGGGTATCCATTAGTGCTA; value = 0.184 z-score
Strand = GTTCTTATCCTTCCCCTCTAGTGCTAG; value = 2.54 z-score
Strand = CTAATATTCTGCTTTGCAATGTGCTAG; value = 1.21 z-score
Strand = AAGACCATCCTGTGTCTTAAAGTGCTA; value = -0.0562 z-score
Strand = TTTACTTTCTATGTCTGTTTGTGCTAG; value = 5.49 z-score
Strand = GACGAACTGAGTCTCGAGTCGTGCTAG; value = 0.376 z-score
Strand = CCATCGATTTCTCTTTCCCAAGTGCTA; value = 3.47 z-score
Strand = TTAGGTTTCGGGTTTCGTTTAGTGCTA; value = 10.3 z-score
Strand = TCAATTTTGTCCTCCCCTACTGTGCTA; value = 1.32 z-score
Strand = AATTAATAACTCGTAGGATCGTGCTAG; value = -0.162 z-score
Strand = GACGGGCTCGGTCTCGGGACGTGCTAG; value = -1 z-score
Strand = AACGGTCTCGGTATCGGGACGTGCTAG; value = 0.376 z-score

Study 4
Target: BATF3, bZIP domain (human)
Technique: DHFR protein complementation
Medium: yeast
Setting: single substitutions, most at no-binding floor
Relative to: wild-type JUN-FOS pair
Direction: higher = stronger binding
Quantity: binding fitness
Starting sequence: JUN, bZIP domain (human); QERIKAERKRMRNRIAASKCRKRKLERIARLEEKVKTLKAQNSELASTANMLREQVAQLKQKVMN; partner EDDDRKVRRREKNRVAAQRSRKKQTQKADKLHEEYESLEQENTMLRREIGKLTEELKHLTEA
Substitution = M51A; value = 0.266 natural log
Substitution = K39F; value = 0.0103 natural log
Substitution = L31I; value = 0.244 natural log
Substitution = L52Q; value = -0.494 natural log
Substitution = A46G; value = 0.0939 natural log
Substitution = A29N; value = 0.171 natural log
Substitution = L59W; value = 0.13 natural log
Substitution = E33L; value = 0.172 natural log
Substitution = V35M; value = 0.12 natural log
Substitution = E44L; value = 0.127 natural log
Substitution = L59G; value = 0.18 natural log
Substitution = Q41S; value = -0.904 natural log
Substitution = I28T; value = 0.192 natural log
Substitution = L38Q; value = 0.117 natural log
Substitution = L38I; value = 0.127 natural log

Study 5
Target: PABPC1L2, full length, GST fusion (mouse, UniProt A0ABA7IW68)
Technique: RNAcompete
Form: RNA
Medium: in vitro
Tested at: 20 nM
Setting: 7-mer, probes averaged, single round
Relative to: mean of 7-mers
Direction: higher = stronger binding
Quantity: 7-mer Z-score
Target sequence (chain): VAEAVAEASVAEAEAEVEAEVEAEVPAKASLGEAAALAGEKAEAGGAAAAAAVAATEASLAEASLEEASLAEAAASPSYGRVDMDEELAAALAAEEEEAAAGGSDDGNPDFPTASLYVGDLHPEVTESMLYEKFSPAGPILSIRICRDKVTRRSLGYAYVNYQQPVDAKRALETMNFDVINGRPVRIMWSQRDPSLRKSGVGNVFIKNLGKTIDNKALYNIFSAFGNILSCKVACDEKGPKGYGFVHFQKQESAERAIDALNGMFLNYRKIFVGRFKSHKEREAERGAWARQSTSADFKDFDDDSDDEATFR
Strand = ACGCGCU; value = -0.251
Strand = CGCGUGA; value = -0.146
Strand = UCUCUCC; value = -0.438
Strand = CAGGCUC; value = -0.139
Strand = GUGGUAG; value = -0.148
Strand = AUUGUUA; value = -0.228
Strand = UGUUUUC; value = -0.489
Strand = CCGCAGA; value = 0.0424
Strand = AAUCAAC; value = 0.0406
Strand = UCGAUAG; value = -0.209
Strand = AAUAUGC; value = 0.454
Strand = CUUUAUU; value = -0.175
Strand = GAUCGCA; value = -0.269
Strand = CUUUUCA; value = -0.387
Strand = CCGCGCA; value = -0.195
Strand = AGUAAGC; value = -0.112
Strand = GUACACA; value = -0.206
Strand = CACUUGC; value = -0.244
Strand = CGGUGAA; value = -0.0953

Study 6
Target: CEP164, C-terminal peptide (human)
Technique: DHFR complementation, deep sequencing
Medium: yeast
Setting: single substitutions, model-inferred values
Relative to: wild type
Direction: higher = weaker binding
Quantity: binding free energy change
Starting sequence: PDZK1, PDZ domain 2 (human); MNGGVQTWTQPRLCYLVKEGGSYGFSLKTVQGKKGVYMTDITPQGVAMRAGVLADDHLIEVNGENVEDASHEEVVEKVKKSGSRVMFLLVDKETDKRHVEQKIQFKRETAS; partner HNRVKVYRF
Substitution = I41M; value = 0.868 kcal/mol
Substitution = V46M; value = 0.563 kcal/mol
Substitution = V78G; value = 1.76 kcal/mol
Substitution = G82Q; value = 0.624 kcal/mol
Substitution = S22W; value = -0.833 kcal/mol
Substitution = I59G; value = 1.86 kcal/mol
Substitution = H98W; value = -0.185 kcal/mol
Substitution = T9A; value = -0.0736 kcal/mol
Substitution = K80R; value = 0.425 kcal/mol
Substitution = V30Q; value = 0.0223 kcal/mol
Substitution = G32F; value = 0.504 kcal/mol
Substitution = L89F; value = 0.412 kcal/mol
Substitution = G21F; value = 0.0806 kcal/mol
Substitution = Y23V; value = 1.25 kcal/mol

Mixed results
Molecule = PhoQ, residues 284 288 289 292 302 303 ASASEQ; target = PhoP, residues 12 14 15 18 19 LYFRQ (Escherichia coli, UniProt P23836); test = Sort-seq, measured: YFP reporter; system = E. coli; setting = PhoQ-PhoP variant library, together with: 10 µM Mg2+; how to read = relative to: high Mg2+ state, higher = stronger signaling; quantity = fold induction; value = 28.7

Excerpt of the above (study 4):
Substitution = L59W; value = 0.13 natural log
Substitution = E33L; value = 0.172 natural log
Substitution = V35M; value = 0.12 natural log
Substitution = E44L; value = 0.127 natural log
Substitution = L59G; value = 0.18 natural log
Substitution = Q41S; value = -0.904 natural log
Substitution = I28T; value = 0.192 natural log
Substitution = L38Q; value = 0.117 natural log
